Results pooled from the literature.
Lines come from different studies, so protocols differ. Several values in a cell are separate wells, animals, samples, runs or records. ± marks the error that the study gave.
blaNDM-1: Metallo-beta-lactamase type 2 (blaNDM-1, Klebsiella pneumoniae, UniProt C7C422)
Chain of UniProt C7C422 (whole entry, looked up): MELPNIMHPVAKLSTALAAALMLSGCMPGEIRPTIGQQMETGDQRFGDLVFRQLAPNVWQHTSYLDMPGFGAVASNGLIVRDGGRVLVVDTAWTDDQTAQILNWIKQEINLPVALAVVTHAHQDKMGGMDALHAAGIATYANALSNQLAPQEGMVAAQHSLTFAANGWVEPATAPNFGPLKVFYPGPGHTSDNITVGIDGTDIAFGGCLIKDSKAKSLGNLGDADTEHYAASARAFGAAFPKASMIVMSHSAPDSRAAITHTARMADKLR
KLRK1 with MICA: NKG2-D type II integral membrane protein, with MICA (KLRK1, Homo sapiens, UniProt P26718)
Chain of UniProt P26718 (whole entry, looked up): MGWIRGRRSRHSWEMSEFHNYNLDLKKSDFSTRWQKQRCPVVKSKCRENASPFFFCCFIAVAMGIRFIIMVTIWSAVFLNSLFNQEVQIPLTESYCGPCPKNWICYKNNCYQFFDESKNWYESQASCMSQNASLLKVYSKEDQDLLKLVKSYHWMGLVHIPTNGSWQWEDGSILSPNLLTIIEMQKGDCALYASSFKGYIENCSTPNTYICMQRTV
Chain of UniProt P48542 (whole entry, looked up): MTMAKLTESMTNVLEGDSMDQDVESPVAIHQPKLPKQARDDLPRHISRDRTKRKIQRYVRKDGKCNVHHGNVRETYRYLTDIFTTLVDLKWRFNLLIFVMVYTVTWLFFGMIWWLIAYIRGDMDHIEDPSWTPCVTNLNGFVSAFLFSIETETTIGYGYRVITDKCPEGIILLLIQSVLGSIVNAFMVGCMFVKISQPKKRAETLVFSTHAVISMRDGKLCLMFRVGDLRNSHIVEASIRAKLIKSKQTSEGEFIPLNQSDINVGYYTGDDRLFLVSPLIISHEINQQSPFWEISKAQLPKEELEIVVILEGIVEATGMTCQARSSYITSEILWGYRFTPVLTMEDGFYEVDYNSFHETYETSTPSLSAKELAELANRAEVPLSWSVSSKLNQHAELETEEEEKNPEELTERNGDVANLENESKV
Chain of UniProt P30969 (whole entry, looked up): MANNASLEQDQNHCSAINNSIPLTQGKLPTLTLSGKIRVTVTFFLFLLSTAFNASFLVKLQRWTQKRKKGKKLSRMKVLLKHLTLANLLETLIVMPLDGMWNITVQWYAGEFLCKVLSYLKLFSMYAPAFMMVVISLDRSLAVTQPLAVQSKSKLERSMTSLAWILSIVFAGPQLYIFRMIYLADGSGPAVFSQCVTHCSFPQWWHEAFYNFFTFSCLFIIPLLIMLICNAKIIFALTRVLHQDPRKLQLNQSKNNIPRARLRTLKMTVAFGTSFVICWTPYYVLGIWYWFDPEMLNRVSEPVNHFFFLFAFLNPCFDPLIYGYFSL
Chain of UniProt P40261 (whole entry, looked up): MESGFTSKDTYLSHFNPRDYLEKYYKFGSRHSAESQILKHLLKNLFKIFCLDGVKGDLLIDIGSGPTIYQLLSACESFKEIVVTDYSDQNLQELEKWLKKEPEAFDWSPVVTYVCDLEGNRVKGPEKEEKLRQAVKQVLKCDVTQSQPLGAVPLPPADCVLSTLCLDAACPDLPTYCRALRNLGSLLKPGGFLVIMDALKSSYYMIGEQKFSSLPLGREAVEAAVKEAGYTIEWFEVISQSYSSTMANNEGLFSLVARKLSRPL
Chain of UniProt P25084 (whole entry, looked up): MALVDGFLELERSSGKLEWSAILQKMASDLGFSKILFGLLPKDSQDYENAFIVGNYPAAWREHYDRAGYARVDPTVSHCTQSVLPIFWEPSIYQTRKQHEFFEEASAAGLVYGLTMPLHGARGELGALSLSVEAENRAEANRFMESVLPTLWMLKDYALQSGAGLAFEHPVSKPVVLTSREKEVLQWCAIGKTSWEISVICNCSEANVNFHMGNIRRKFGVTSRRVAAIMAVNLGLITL
Chain of UniProt P27487 (whole entry, looked up): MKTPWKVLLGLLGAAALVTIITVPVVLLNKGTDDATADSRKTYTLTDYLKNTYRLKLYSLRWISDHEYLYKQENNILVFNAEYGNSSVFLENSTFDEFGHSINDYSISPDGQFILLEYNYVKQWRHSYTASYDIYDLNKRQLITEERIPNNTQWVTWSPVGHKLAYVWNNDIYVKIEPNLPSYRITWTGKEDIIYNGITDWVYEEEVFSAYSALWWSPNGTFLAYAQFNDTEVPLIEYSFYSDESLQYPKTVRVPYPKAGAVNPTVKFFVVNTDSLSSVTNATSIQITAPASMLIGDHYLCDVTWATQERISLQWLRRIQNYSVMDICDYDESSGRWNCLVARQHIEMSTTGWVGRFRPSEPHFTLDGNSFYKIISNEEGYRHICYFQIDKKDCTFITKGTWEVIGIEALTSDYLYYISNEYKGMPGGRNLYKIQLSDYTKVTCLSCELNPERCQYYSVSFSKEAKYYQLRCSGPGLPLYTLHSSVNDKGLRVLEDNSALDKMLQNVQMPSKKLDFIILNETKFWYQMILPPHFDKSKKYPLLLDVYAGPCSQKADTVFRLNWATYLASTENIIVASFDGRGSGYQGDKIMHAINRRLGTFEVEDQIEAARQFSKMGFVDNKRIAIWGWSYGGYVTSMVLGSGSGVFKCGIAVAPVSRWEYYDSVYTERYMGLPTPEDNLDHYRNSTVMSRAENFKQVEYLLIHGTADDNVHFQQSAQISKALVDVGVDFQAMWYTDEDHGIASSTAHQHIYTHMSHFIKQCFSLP
Chain of UniProt P11473 (whole entry, looked up): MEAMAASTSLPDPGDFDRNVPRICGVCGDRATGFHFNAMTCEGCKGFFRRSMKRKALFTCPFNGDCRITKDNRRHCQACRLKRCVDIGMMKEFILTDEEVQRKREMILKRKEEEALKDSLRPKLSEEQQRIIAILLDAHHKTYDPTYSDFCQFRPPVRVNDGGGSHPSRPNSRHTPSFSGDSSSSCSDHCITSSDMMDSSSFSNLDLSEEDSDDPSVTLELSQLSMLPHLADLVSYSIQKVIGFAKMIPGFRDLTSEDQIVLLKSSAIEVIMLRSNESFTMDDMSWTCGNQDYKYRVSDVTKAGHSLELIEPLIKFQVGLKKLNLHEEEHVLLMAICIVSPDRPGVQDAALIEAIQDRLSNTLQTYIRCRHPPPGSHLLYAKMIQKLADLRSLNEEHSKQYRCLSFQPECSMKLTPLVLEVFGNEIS
Chain of UniProt P08183 (whole entry, looked up): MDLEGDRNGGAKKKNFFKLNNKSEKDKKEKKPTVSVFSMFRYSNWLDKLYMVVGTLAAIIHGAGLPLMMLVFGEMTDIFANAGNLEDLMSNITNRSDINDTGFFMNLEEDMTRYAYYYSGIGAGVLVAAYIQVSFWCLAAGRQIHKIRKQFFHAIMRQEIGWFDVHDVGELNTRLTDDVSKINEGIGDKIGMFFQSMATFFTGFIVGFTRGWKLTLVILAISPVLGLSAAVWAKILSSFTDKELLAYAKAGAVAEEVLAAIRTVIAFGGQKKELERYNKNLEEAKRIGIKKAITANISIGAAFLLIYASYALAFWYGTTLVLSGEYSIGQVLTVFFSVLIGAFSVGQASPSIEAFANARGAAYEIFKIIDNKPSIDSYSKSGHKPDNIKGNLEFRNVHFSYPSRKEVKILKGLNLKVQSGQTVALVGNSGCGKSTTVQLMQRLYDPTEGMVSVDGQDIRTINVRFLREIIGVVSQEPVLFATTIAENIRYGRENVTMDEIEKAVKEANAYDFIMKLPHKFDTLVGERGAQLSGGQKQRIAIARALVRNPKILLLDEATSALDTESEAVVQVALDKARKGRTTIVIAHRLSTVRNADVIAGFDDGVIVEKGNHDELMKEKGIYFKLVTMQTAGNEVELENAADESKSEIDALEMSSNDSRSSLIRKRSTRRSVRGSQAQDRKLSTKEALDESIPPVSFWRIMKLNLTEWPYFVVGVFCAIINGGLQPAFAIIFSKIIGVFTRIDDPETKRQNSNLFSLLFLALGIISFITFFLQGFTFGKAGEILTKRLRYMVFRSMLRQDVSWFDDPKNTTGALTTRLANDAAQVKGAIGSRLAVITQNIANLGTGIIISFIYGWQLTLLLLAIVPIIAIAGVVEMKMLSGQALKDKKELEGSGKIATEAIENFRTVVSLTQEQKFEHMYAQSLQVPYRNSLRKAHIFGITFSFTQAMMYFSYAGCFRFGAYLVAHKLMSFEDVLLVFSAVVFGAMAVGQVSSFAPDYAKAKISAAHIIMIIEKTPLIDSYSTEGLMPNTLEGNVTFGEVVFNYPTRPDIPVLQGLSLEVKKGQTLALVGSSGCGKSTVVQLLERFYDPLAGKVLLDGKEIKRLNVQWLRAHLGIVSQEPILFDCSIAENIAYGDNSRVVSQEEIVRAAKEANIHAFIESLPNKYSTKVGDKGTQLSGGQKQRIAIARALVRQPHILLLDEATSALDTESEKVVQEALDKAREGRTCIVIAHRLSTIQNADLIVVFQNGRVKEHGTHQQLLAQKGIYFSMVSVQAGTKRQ
Chain of UniProt P50391 (whole entry, looked up): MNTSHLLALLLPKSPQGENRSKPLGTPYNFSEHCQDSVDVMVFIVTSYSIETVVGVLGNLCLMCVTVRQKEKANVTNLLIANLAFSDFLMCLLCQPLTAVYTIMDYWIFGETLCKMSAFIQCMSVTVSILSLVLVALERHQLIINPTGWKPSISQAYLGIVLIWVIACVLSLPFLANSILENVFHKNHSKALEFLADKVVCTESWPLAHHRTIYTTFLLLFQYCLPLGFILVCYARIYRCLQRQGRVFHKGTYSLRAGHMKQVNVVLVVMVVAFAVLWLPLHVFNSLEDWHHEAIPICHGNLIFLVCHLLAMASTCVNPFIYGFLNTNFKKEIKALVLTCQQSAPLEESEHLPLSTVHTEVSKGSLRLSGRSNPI
Chain of UniProt Q58513 (whole entry, looked up): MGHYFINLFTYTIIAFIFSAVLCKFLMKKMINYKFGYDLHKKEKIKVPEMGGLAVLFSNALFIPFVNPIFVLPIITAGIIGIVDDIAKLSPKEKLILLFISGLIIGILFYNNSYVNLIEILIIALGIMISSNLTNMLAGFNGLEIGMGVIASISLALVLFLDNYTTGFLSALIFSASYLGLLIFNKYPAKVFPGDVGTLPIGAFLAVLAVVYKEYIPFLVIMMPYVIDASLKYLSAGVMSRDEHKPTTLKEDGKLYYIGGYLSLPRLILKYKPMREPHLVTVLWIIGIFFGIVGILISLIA

With `CC(C)NCc1ccc(C[C@@H]2NC(=O)[C@@H](Cc3c[nH]c4ccccc34)NC(=O)[C@H](Cc3ccccc3)NC(=O)[C@H](Cc3ccccc3)NC(=O)[C@H](CCCCN)NC(=O)[C@@H](NC(N)=O)CSSC[C@@H](C(=O)O)NC(=O)[C@H](CO)NC(=O)[C@H]([C@@H](C)O)NC(=O)[C@H](Cc3ccc(O)c(I)c3)NC(=O)[C@H]([C@@H](C)O)NC2=O)cc1` the IC50 was over 1 µM (SSTR2 (Homo sapiens, UniProt P30874); ligand displacement, radioligand; cell membranes).
With `CCCCC[N+](CCCCC)(CCCCC)CCCCC` the IC50 was 13 µM (Kcnk2 (Rattus norvegicus, UniProt Q920B6); ion current, inhibitor; oocytes).
`CC(=O)CCC1C(=O)NC(C(C)C)C(=O)NC(Cc2cc(O)cc(F)c2)C(=O)N2CCCC(N2)C(=O)OC(C(C)=CC=CC(=O)N2CCCCO2)CC=CC=CC(O)C(C)C1O` (stereo not shown) gave an IC50 of over 50 µM (ABCB1 (Homo sapiens, UniProt P08183); P-glycoprotein transport, inhibitor; MDR1-MDCK; 60 min, pH 7.4, with: loperamide 5 µM).
`C[C@H](N)C(=O)N[C@@H](Cc1ccccc1)C(=O)N[C@@H](CCC(=O)O)C(=O)N1CCC[C@H]1C(=O)O` gave an IC50 of 396 µM (DPP4 (Homo sapiens, UniProt P27487); enzyme activity, inhibitor, absorbance).
`CC[C@H](C)[C@@H]1NC(=O)[C@H](CCCNC(=N)N)NC(=O)[C@H](CC(C)C)NC(=O)[C@H](CC(C)C)NC(=O)[C@H](Cc2ccc(O)cc2)NC(=O)[C@H](CC(C)C)NC(=O)[C@H](CCCCN)NC(=O)[C@H](CCCCN)NC(=O)[C@H](Cc2c[nH]cn2)NC(=O)[C@H]([C@@H](C)CC)NC(=O)[C@H](C(C)C)NC(=O)[C@H](C(C)C)NC(=O)[C@H]([C@@H](C)CC)NC(=O)[C@H](CCCNC(=N)N)NC(=O)[C@H](Cc2ccc(O)cc2)NC(=O)CSC[C@@H](C(=O)NCC(N)=O)NC(=O)CNC1=O` has an IC50 of 1.58 µM (NNMT (Homo sapiens, UniProt P40261); enzyme activity, inhibitor, mass spectrometry).
`O=C(Nc1ccccc1NC(=O)c1cccc(Cl)c1)c1cccc(Cl)c1` gave an IC50 of 70 µM (lasR (Pseudomonas aeruginosa, UniProt P25084); reporter gene, antagonist; Escherichia coli, JLD271 with LasR plasmid; with: OdDHL 2 nM).
For `CC[C@H](C)[C@@H]1NC(=O)[C@H](CCCNC(=N)N)NC(=O)[C@H](CC(N)=O)NC(=O)[C@@H]2CSSC[C@@H](C(=O)NCC(=O)N[C@@H](CCCCN)C(=O)N[C@@H](C)C(N)=O)NC(=O)[C@H](CCCCN)NC(=O)[C@H](CCCCN)NC(=O)[C@H](Cc3c[nH]c4ccccc34)NC(=O)[C@H](CSSC[C@H](NC(=O)[C@H](CC(C)C)NC(=O)[C@H](C)N)C(=O)N[C@@H](CC(N)=O)C(=O)N2)NC(=O)[C@H](CCC(N)=O)NC(=O)[C@H](Cc2c[nH]cn2)NC(=O)[C@@H]2CCCN2C(=O)[C@H]([C@@H](C)CC)NC(=O)[C@H]([C@@H](C)CC)NC1=O`, the IC50 was 0.034 ± 0.002 µM (Kcnj6/Kcnj3 (Mus musculus, UniProt P48542+P63251); ion current, inhibitor, two-electrode voltage clamp; Xenopus laevis oocytes; -80 mV, 20 mM K+, with: Gbeta1gamma2 activation).
With `NCCCC[C@@H](NC(=O)[C@H](Cc1c[nH]cn1)NC(=O)[C@H](CO)NC(=O)[C@H](Cc1c[nH]c2ccccc12)NC(=O)[C@H](Cc1c[nH]cn1)NC(=O)[C@@H]1CCC(=O)N1)C(=O)N[C@@H](Cc1c[nH]c2ccccc12)C(=O)N[C@@H](Cc1ccc(O)cc1)C(=O)N1CCC[C@H]1C(=O)NCC(N)=O` the IC50 was 0.0007 ± 0.0002 µM (Gonadotropin-releasing hormone receptor (Rattus norvegicus, UniProt P30969); binding, radioligand displacement; WPE-1-NB26-3 expressing Gonadotropin-releasing hormone receptor, whole cells; with: radioiodinated GnRH analogue).
The IC50 of `COc1nn(-c2ccc(NC(=O)CON)cc2)c(=O)o1` is reported as 36 µM and > 20 µM (Fluorophosphonate-binding hydrolase B (Staphylococcus aureus, UniProt Q2FV90)).
`Cc1ccc(-c2nc3c(=O)n(C)c(=O)nc-3n(C)n2)cc1` has an IC50 of 8.6 µM (TPR (Trypanosoma brucei brucei, UniProt P39051); inhibitor, DTNB-coupled colourimetric; with: substrate at Km).
The IC50 of `CC12CC(O)C3C(CCC4(O)CC(O)CC(O)C34CO)C1(O)CCC2C1=CC(=O)OC1` (stereo not shown) is reported as 0.669 µM (porcine Na+/K+-ATPase; enzyme activity, colorimetric phosphate release).
The IC50 of `CC[C@@H]1CN2CCc3c([nH]c4cccc(OC)c34)[C@@H]2C[C@@H]1/C(=C\OC)C(=O)OC` is reported as over 100 µM (UGT2B7 (Homo sapiens, UniProt P16662); enzyme activity, inhibitor; 2 h, pH 7.4).
`CC(=O)NC1C(OC2OC(CC(O)C3OC(n4ccc(=O)[nH]c4=O)C(O)C3O)C(O)C(O)C2NC(=O)C=CCCCCCCCCCC(C)C)OC(CO)C(O)C1O` (stereo not shown) gave an IC50 of over 50 µM (Putative glycosyltransferase MJ1113 (Methanocaldococcus jannaschii, UniProt Q58513); enzyme activity, inhibitor; Methanococcus jannaschii enzyme).
`CC[C@@H]1C(=O)N(C)c2cnc(Oc3ccc(C(=O)NCCCC[C@H](NC(=O)COCCOCCNC(=O)COCCOCCNC(=O)COCCOCCNC(=O)COCCOCCNC(=O)[C@@H](NC(=O)[C@H](CO)NC(=O)[C@H](Cc4cncn4CCCCCCCCc4ccccc4)NC(=O)[C@H](CC(C)C)NC(=O)[C@@H]4CCCN4C(C)=O)[C@@H](C)OP(=O)(O)O)C(N)=O)cc3OC)nc2N1C1CCCC1` has an IC50 of 0.71 µM (PLK1 (Homo sapiens, UniProt P53350); enzyme activity, inhibitor, FRET).
For `NC(=O)C1CN1S(=O)(=O)c1ccccc1` (stereo not shown), the IC50 was 9.3 µM (PDIA3 (Homo sapiens, UniProt P30101); enzyme activity, inhibitor, absorbance; pH 7.6).
With `CC(C)C[C@H](NC(=O)[C@H](C)NC(=O)[C@H](CC(N)=O)NC(=O)[C@H](CCC(=O)O)NC(=O)[C@H](CCCCN)NC(=O)CNC(=O)CNC(=O)CNC(=O)[C@H](CCCNC(=N)N)NC(=O)[C@H](CCCNC(=N)N)NC(=O)[C@H](CCCNC(=N)N)NC(=O)[C@H](CCCNC(=N)N)NC(=O)[C@H](CCCNC(=N)N)NC(=O)[C@H](CCCNC(=N)N)NC(=O)[C@H](CCCNC(=N)N)NC(=O)[C@H](CCCNC(=N)N)NC(=O)[C@@H](N)CCCNC(=N)N)C(=O)N[C@@H](CC(C)C)C(=O)N[C@@H](CCCNC(=N)N)C(=O)N[C@@H](Cc1ccc(O)cc1)C(=O)N[C@@H](CC(C)C)C(=O)N[C@@H](CC(C)C)C(=O)N[C@@H](CC(=O)O)C(=O)N[C@@H](CCCCN)C(=O)N[C@@H](CC(=O)O)C(N)=O` the IC50 was 2.03 ± 0.29 µM (Vitamin D3 receptor (VDR, Homo sapiens, UniProt P11473); reporter gene, antagonist, dual-luciferase; MCF7; 16 h, with: calcitriol 30 nM).
`CSCC[C@H](NC(=O)[C@@H](N)CCCNC(=N)N)C(=O)N[C@@H](CO)C(=O)N[C@@H](C)C(=O)N1CCC[C@H]1C(=O)N[C@@H](CO)C(=O)N[C@H](C(=O)NCC(=O)NCC(=O)N[C@H](C(=O)O)C(C)C)[C@@H](C)O` has an IC50 of 0.747 µM (HLA class I histocompatibility antigen, A alpha chain, allele A*02:03 (Homo sapiens, UniProt P04439); peptide binding, binding; HLA-A2 subtype).
With `Clc1cc2oc3cc(Cl)c(Cl)cc3c2cc1Cl` the IC50 was 0.00135 µM (Aryl hydrocarbon receptor (AHR, Delphinapterus leucas, UniProt Q95LD9); competitive binding, hydroxyapatite binding; pH 7.5, with: 2 nM [3H]TCDD).
With `O=C(CCS)Nc1ccccc1-c1nn[nH]n1` the IC50 was 3.16 µM (blaNDM-1; enzyme activity, inhibitor, fluorescence; with preincubation).
`CC(=O)N[C@@H](CCCNC(=N)N)C(=O)N[C@@H](Cc1ccc(O)cc1)C(=O)N[C@H]1CCCNC(=N)NC(=O)NCCCCNC(=O)[C@H](Cc2ccc(O)cc2)NC(=O)[C@H](CCCNC(=N)N)NC(=O)[C@H](CC(C)C)NC1=O` gave an IC50 of 5.39 ± 1.63 µM (NPY4R (Homo sapiens, UniProt P50391); β-arrestin 1 recruitment, antagonist; HEK293T; with: 3 nM human pancreatic polypeptide).
For `C/C=C1/CN2CCc3c([nH]c4ccccc34)[C@@H]2C[C@@H]1/C(=C\OC)C(=O)OC`, the IC50 was 0.191 µM (HTR2B (Homo sapiens, UniProt P41595); ligand displacement, radioligand; cell membranes).
`CCCCCCCCCCCCCCCCCC(=O)N[C@@H](CC(=O)O)C(=O)N1CCC[C@H]1C(=O)N[C@@H](CCC(=O)O)C(=O)N[C@H](C(=O)NCC(=O)N[C@@H](CCC(=O)O)C(=O)N[C@@H](CC(C)C)C(=O)O)[C@@H](C)O` gave an IC50 of 0.12 ± 0.01 µM (Kelch-like ECH-associated protein 1, Kelch domain with NRF2 (KEAP1, Homo sapiens, UniProt Q14145); Keap1 Kelch-Nrf2 binding, inhibitor, FRET competition; 0.1% DMSO, with: CFP-Nrf2 0.11 µM).
With `NC[C@@H]1O[C@H](O[C@H]2[C@@H](O)[C@H](O[C@@H]3[C@@H](O)[C@H](N)C[C@H](N)[C@H]3O[C@H]3O[C@H](CN)[C@@H](O)[C@H](O)[C@H]3N)O[C@@H]2Cn2cc(COCCCCCCCCCCCCOCc3cn(C[C@H]4O[C@@H](O[C@@H]5[C@@H](O)[C@H](N)C[C@H](N)[C@H]5O[C@H]5O[C@H](CN)[C@@H](O)[C@H](O)[C@H]5N)[C@H](O)[C@@H]4O[C@H]4O[C@@H](CN)[C@@H](O)[C@H](O)[C@H]4N)nn3)nn2)[C@H](N)[C@@H](O)[C@@H]1O` the IC50 was 0.067 ± 0.009 µM (HIV-1 TAR RNA; Tat peptide binding, FRET competition; pH 7.4, 25 °C).
`CC(C)C(=O)Nc1cccc(-c2nn[nH]n2)c1` gave an IC50 of over 100 µM (blaNDM-1; enzyme activity, inhibitor, fluorescence; with preincubation).
For `NC(=O)c1cccc(CCN(CC[C@H](N)C(=O)O)C[C@H]2O[C@@H](n3cnc4c(N)ncnc43)[C@H](O)[C@@H]2O)c1`, the IC50 was 10 µM (N6-adenosine-methyltransferase catalytic subunit, with METTL14 (METTL3, Homo sapiens, UniProt Q86U44); enzyme activity, inhibitor, radiometric; METTL3-METTL14 complex).
`COC1CC(=O)N(C)C=CCCCC(=O)N(C)C(C(C)C)C(=O)N(C)C(CC(C)C)C(=O)OC(C(C)C)CC(C)C1` (stereo not shown) has an IC50 of 20 µM (Neuropeptide S receptor, isoform B (NPSR1, Homo sapiens, UniProt Q6W5P4); β-arrestin recruitment, antagonist; U2OS; 30 min).
With `COc1ccc2nc(C)cc(OCC(=O)Nc3ccccc3OC)c2c1` the IC50 was 0.6 µM (Cytochrome P450 2C9 (CYP2C9, Homo sapiens, UniProt P11712); inhibitor).
`CCC(=O)C(NC(=O)c1ccccc1-c1ccc(C(F)(F)F)cc1)c1cccc(C(F)(F)F)c1` (stereo not shown) gave an IC50 of 3 ± 0.4 µM (KLRK1 with MICA; ligand binding, inhibitor, TR-FRET; HEK293 expressing NKG2D and DAP10; with: MICA-Alexa647).
For `O=C(COc1ccc2c(c1O)C(=O)c1ccccc1C2=O)c1ccccc1`, the IC50 was over 100 µM (Gag-Pol polyprotein, reverse transcriptase (gag-pol, Human immunodeficiency virus 1, UniProt P03366, Y780C); enzyme activity; Y181C reverse transcriptase).
The IC50 of `CN1C(=O)[C@H](Cc2ccccc2)N(C)C(=O)[C@@H]2[C@H]1CCN2Cc1cc(Cl)cc(Cl)c1` is reported as 19 µM and ~19 µM (KLRK1 with MICA).
The IC50 of `COc1ccccc1C(NS(=O)(=O)c1cc2ccc(O)nc2cc1Cl)C(=O)N(CC(=O)NCCn1cc(COCCOCCOCCOCCNc2cccc3c2C(=O)N(C2CCC(=O)NC2=O)C3=O)nn1)Cc1cccs1` (mixture of isomers) is reported as 1.52 µM (OGT (Homo sapiens, UniProt O15294); enzyme activity, inhibitor, fluorescence).
`N#Cc1cn([C@@H]2O[C@H](CSCC[C@H](N)C(=O)O)[C@@H](O)[C@H]2O)c2ncnc(N)c12` gave an IC50 of 39 µM (PRMT9 (Homo sapiens, UniProt Q6P2P2); enzyme activity, inhibitor, radiometric).
`CNCP(C)(=O)O` has an IC50 of 36 ± 3 µM (Urease subunit alpha, with UreA, UreB (ureC, Proteus mirabilis, UniProt P17086); whole-cell urease activity, inhibitor; 15 min preincubation, pH 5.5, 37 °C, with: 5 mM urea).
The IC50 of `C[C@H](CS)C(=O)Nc1ccccc1-c1nnn(Cc2ccccc2)n1` is reported as 1.46 µM (blaNDM-1; enzyme activity, inhibitor, fluorescence; with preincubation).
